Measurements from different studies.
Lines come from different studies, so protocols differ.
ABL1 non-phosphorylated: Tyrosine-protein kinase ABL1, non-phosphorylated (ABL1, Homo sapiens, UniProt P00519)

With `COc1cc(-c2cc(-c3ccc(N4CCNCC4)cc3)cnc2N)cc(OC)c1OC` the inhibition was 87% (Tyrosine-protein kinase ABL1 (ABL1, Homo sapiens, UniProt P00519, Q252H); enzyme activity, inhibitor; 0.1 µM).
The remaining binding of `C1=C/COCc2cc(ccc2OCCN2CCCC2)Nc2nccc(n2)-c2cccc(c2)COC/1` is reported as 23% (ABL1 non-phosphorylated; binding; 0.1 µM).
For `Cc1cc([C@@H](C)Nc2ccccc2C(=O)O)c2nc(N3CCC(F)(F)CC3)c(C#N)c(=O)n2c1`, the remaining binding was 80% (ABL1 non-phosphorylated; binding, competition with immobilised ligand; 10 µM).
`Nc1ncnc2occ(-c3ccc(NC(=O)Nc4cc(C(F)(F)F)ccc4F)cc3)c12` gave a remaining signal of 0% (Tyrosine-protein kinase ABL1, non-phosphorylated (ABL1, Homo sapiens, UniProt P00519, Q252H); cell-free assay, inhibitor; 20 µM).
`COc1cc(-c2cncc3c2CN(C)Cc2cc(N4CCNCC4)ccc2-3)cc(OC)c1OC` has a remaining activity of 109% (Tyrosine-protein kinase ABL1 (ABL1, Homo sapiens, UniProt P00519, T315I); enzyme activity, inhibitor; 1 µM).
`CCCCC(=O)Nc1ccc(-c2ccc3ncn(CCC)c(=O)c3c2)cn1` gave a remaining binding of 96% (Tyrosine-protein kinase ABL1, non-phosphorylated (ABL1, Homo sapiens, UniProt P00519, T315I); binding, competition with immobilised ligand; 0.5 µM).
The remaining binding of `C=CC(=O)N1CCC(COCC(=O)N2CCN(c3nc(-c4cnc(N)nc4C(F)F)nc(N4CCOC[C@@H]4C)n3)CC2)CC1` is reported as 78% (Tyrosine-protein kinase ABL1, phosphorylated (ABL1, Homo sapiens, UniProt P00519, M351T); binding, competition with immobilised ligand; 1 µM).
With `CN(c1nccc(-c2cnn3ncccc23)n1)C1CC1` the remaining binding was 99% (Tyrosine-protein kinase ABL1 (ABL1, Homo sapiens, UniProt P00519, H396P); binding; 1 µM).

Some of these lines once more:
`COc1cc(-c2cncc3c2CN(C)Cc2cc(N4CCNCC4)ccc2-3)cc(OC)c1OC` has a remaining activity of 109% (Tyrosine-protein kinase ABL1 (ABL1, Homo sapiens, UniProt P00519, T315I); enzyme activity, inhibitor; 1 µM).
